Results of several laboratories.
Each numbered part is a random draw from the data of one study; scales do not carry over between parts.

Sample 1
Target: Histone acetyltransferase KAT6A, winged helix 1, GST fusion (KAT6A, Homo sapiens, UniProt Q92794, residues 1-85)
Method: protein binding microarray
Form: double-stranded DNA, one strand shown
Sample: in vitro
Concentration: not given
Setting: 8-mer, flanks averaged, mean of 2 arrays, mostly near background
Reference: not given
Direction: higher = stronger binding
Construct (chain): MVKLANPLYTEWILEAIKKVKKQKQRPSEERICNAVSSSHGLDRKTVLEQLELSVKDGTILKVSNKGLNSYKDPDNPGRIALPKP
Strand	E-score
CCTTTTAA	-0.0367
CTGTGGTA	-0.169
CGGGGCGC	0.405
AACTCAGC	0.0691

Sample 2
Target: Sal-like protein 4, full length isoform B (SALL4, Homo sapiens, UniProt Q9UJQ4-2, residues 1-616)
Method: universal PBM
Form: double-stranded DNA, one strand shown
Sample: in vitro
Concentration: not given
Setting: 8-mer, flanks averaged, mean of replicates
Direction: higher = stronger binding
Residues (chain): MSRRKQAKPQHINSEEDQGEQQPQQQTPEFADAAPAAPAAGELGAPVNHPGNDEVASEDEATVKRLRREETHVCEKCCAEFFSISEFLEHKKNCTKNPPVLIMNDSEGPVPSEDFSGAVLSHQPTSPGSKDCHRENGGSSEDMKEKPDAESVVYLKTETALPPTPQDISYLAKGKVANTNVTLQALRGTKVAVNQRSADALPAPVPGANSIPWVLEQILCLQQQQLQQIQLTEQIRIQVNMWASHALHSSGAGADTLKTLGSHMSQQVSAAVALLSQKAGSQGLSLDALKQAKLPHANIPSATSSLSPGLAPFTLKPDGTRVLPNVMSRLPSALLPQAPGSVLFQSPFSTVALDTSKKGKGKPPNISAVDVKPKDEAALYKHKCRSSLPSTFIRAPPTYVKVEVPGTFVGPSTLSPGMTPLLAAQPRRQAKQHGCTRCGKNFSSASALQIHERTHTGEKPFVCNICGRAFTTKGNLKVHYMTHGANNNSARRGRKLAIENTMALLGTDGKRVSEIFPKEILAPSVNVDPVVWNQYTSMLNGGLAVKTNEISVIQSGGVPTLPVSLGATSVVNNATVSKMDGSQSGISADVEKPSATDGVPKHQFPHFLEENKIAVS
Strand	E-score
AGCCATCC	-0.324
TAAAAGAA	0.23
AACATAGC	0.163
GTCAGACA	-0.0109

Sample 3
Target: Centromere-binding protein 1, full length, His-tagged (CBF1, Saccharomyces cerevisiae, UniProt P17106, residues 1-351)
Sequence of UniProt P17106 (whole entry, looked up): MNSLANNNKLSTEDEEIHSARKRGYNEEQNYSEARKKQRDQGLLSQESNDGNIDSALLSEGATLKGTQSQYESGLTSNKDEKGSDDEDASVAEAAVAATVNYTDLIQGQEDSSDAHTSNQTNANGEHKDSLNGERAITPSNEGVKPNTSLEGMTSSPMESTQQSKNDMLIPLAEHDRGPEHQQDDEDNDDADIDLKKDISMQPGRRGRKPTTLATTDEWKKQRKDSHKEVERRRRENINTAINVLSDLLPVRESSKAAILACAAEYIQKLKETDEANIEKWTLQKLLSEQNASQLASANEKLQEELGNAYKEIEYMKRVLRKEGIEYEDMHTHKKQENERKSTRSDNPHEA
Method: competition protein-binding microarray
Form: double-stranded DNA, one strand shown
Sample: in vitro
Concentration: 2 µM
Setting: whole 60-bp probe, lowest competitor level
With: Pho4 competitor, 0.05 µM
Direction: higher = stronger binding
All sequences stand within: … GTCTTGATTCGCTTGACGCTGCTG
Strand	fluorescence intensity [a.u.]
GACGTACGCGCCTTCCACGTGTAACTCTTGTCTCTC	452
TATACGAATGTTACCCACGATGGCCGGAGTAGCTGT	53.8
TTGAAATGGCCAATCACCGTGCCAGGCTTGCAAGTC	81.4
CCTTCGACCTTCCATCACGTGCAAATAGCTTAATAT	4630
CTAACGAAGGTTTGGTTAGTGGGTGACAAGCCAAGT	80.3
CTAACGAAGGTTTGCAATGTGGGTGACAAGCCAAGT	72.8

Further values, each from its own experiment
Substance	target	assay	system	conditions	how to read	measurement	result
PhoQ, residues 284 288 289 292 302 303 TLSLKA	PhoP, residues 12 14 15 18 19 SQCLL (Escherichia coli, UniProt P23836)	Sort-seq, measured: YFP reporter	E. coli	PhoQ-PhoP variant library, with: 10 µM Mg2+	reference: high Mg2+ state, higher = stronger signaling	fold induction	1.16

Repeated from above (sample 3):
Strand	fluorescence intensity [a.u.]
TTGAAATGGCCAATCACCGTGCCAGGCTTGCAAGTC	81.4
CCTTCGACCTTCCATCACGTGCAAATAGCTTAATAT	4630
